Published values of several laboratories.
Numbered parts are unrelated; each lists some results of a single study. Substitutions count along the parent as printed.

Block 1
Target: Sal-like protein 4, full length isoform B (SALL4, Homo sapiens, UniProt Q9UJQ4-2, residues 1-616)
Method: universal PBM
Form: double-stranded DNA, one strand shown
Matrix: in vitro
Concentration: not given
Setting: 8-mer, flanks averaged, mean of replicates
Direction: higher = stronger binding
Sequence | E-score
CCCGCCCA | -0.155
CGAATACC | -0.174
CAAATCGG | -0.0539
GCCTGTGA | -0.169
ATTTGGGG | -0.0662
ACCCTGGC | -0.315
GTCTCTTA | 0.0416
CTGGGACC | -0.283
GAAGATAC | 0.125
CCAACCGA | -0.131
GTTCGTAA | 0.0736
AAAATTCA | 0.323
GAATTGCA | 0.0935
ACAAATGG | 0.141
ATGATAAA | 0.362
TACGGATA | 0.217
ACATCGCG | -0.3
TAAGCTTA | 0.101
AGCAGTCG | -0.229
CTCGGTTC | -0.225
AGCACCGC | -0.334
AACCACTA | 0.117
ATATTTAA | 0.448
CGCACGAG | -0.263
AGCATTAA | 0.208

Block 2
Target: RNA binding protein fox-1 homolog 2, RRM domain, GST-SBP tag (RBFOX2, Homo sapiens, UniProt O43251-10, residues 100-194)
Method: RNA Bind-n-Seq
Form: RNA
Matrix: in vitro
Concentration: 365 nM
Setting: natural RNA segment, single round, ends assumed
Baseline: no-protein control
Direction: higher = stronger binding
Constant ends, left off below: GGGAGUUCUACAGUCCGACGAUC … UGGAAUUCUCGGGUGCCAA
Target sequence (chain): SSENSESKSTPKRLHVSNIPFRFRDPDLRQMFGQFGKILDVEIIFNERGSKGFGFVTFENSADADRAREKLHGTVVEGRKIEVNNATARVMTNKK
Sequence | RBNS enrichment (R)
CCAUCGGUAGGGGCACCGAUUAGUCUACUAACAGCCAGAGGUCCAUCUAGCAGGGUGCCGGGAGGAGCUGAGCCCCCGGAGGUGGGCUCCUGGUGACGGGUGUCCAAGAA | 0.471
AUCAGACUUCACACUGCAAGAGCCUUGGUGUCCACCUGGCCCCAUGUCUCUCAGAAUUCUUCAGGUGGAAAAACAUCUGAAAGCCACGUUCCUUACUGCAGAAUAGCAUA | 0.249
UAAUGUGCGACGUGUCGCCCAAGCUCUGCCCUAAGAAGCUUCUUAGUGACUCCAGCCACCUGAGAGCGCCCAGGAGCACCAGGGGGGGCCAGAUGCGCUUCCUGAGCUCU | 0.25
UGCCUGACGCUUCUCCACCCAGUGAUUGUGCUCCUGUCCCAAAGCACCCCGCUCAAGUCUCCCACCCCUGGUGGACCUCUGACUCUGUUGCUUUUCUUUAAGUAAAGAUU | 0.461
AUUGGGGCCGCCAUCCUGCCUGGCACUGGCUGAUGGGCACCUCUGUUGGUUCCAUCAGCCAGAGCUCUGCCAAAGGCCCCGCAGUCCCUCUCCCAGGAGGACCCUAGAGG | 0.246
AAAUGUUUUCAAGAAAUCACUUAAGUGUUCAUAGACCAGUAUUUCUGACAGGUAAAAUGCUAAAAUAAGCUACCUGUAAUAAGUGUGGAUUAUAUUUUUGGGUUUUGUAG | 0.496
CCCAGGGCCUCUGGGACACUUGCCUUGACUUGCAACUUGCCUUGAACAUCACGAUCAAAGCAGCAGGUGCUGUGGUCUCUCAAAAUUGAUUUUUAUUUGACUCUGUGGCU | 0.767
UUAUAGCUAAAACACUAGGAUUUAUCUGCAGUGUUCAGGGAGAUAAUUCUGCCUUUAAUUGUCUAAAACAAAAACAAAACCAGCCAACCUAUGUUACACGUGAGAUUAAA | 0.459
AUUCCAAGUCACUCCUCGAUGAAGACUCUUGUUGAGACUUACUAAACACUUUAGGCGCAGUCGGGAGGAUCUGCAGCAAAAUAAAGGCCUGUUCUGCUCUUAUUUAACAU | 0.357
UGCUUUGUUGCCCAGGCUGAAGUGCAGUGGCAUAAUCUCAGCUCACUGAAACCUCUGCCUCCCGGGUUCAAACGAUUCUCCUGCCUCAGCCUCCCAAGUAGCUGGGAUUA | 0.309
CCUCCAGGCACGUCCCGGACCUGUGGGGCCCCAGAGAGGGGACAUUUCCCUCCUGGGAGAGAAGGAGAUCAGGGCAACUCGGAGAGGGCUGCGAGCAUUUCCCUCCCGGG | 0.348
UAGCCCUAAAAUGACAAGCCUUCUUAAAGCCUUAUUUUUCAAAAGCGCCCCCCCCAUUCUUGUUCAGAUUAAGAGUUGCCAAAAUACCUUCUGAACUACACUGCAUUGUU | 0.943

Block 3
Target: Centromere-binding protein 1, full length, His-tagged (CBF1, Saccharomyces cerevisiae, UniProt P17106, residues 1-351)
Chain of UniProt P17106 (whole entry, looked up): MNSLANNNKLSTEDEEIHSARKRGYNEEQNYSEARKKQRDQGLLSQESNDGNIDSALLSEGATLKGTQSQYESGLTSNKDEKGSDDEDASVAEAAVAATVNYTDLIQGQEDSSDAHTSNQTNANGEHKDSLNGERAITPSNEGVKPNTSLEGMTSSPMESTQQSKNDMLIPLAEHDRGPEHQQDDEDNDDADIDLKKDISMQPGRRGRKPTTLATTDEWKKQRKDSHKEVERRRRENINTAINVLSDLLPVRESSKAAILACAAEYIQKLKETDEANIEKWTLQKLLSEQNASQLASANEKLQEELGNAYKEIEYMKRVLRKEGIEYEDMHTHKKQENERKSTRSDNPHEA
Method: competition protein-binding microarray
Form: double-stranded DNA, one strand shown
Matrix: in vitro
Concentration: 2 µM
Setting: whole 60-bp probe, lowest competitor level
With: Pho4 competitor, 0.05 µM
Direction: higher = stronger binding
Constant ends, left off below: … GTCTTGATTCGCTTGACGCTGCTG
Sequence | fluorescence intensity
GCTCATCCTTCTGTTCATGCGTGAAGGCTGAATTAT | 90.6 a.u.
CGGGGTTAAGTTTGCCGGGTGGGTGGCTTGCAGCAG | 62.6 a.u.
CGGGGTTAAGTTTGTCACAAGACTTGCTTGCAGCAG | 107 a.u.
AAAAGTTTTGAAAAACACGTGCCGATGATTTTTTGT | 2570 a.u.
GACTTCATTTGGAACATCATATAGACAAATGGAGTT | 81.9 a.u.
CTTTCCCGATCTTGGCTTGTGGGTGTAGCACATTTG | 79.1 a.u.
TTTTTTCTGTTAGGGCACATGACAATTGCCTATTAT | 469 a.u.
CGTCCTAGCGATTGAGACGTGGGTGCCATGAGGAAG | 72 a.u.
CTTGATTCTAAATATCACAGTAGAATAATGGTTTAT | 85.6 a.u.
ACCGGGAAAATCCAACACGTGATGGTCCGACATGGA | 3390 a.u.
TGTAGTGGCAGTTTGCACGGGGTTTCCTGTGCCTTA | 162 a.u.
GATCCAGATTTCGACCACGTGCTAATTATGCGTTTG | 4200 a.u.
CACTGAGTACTTCCTCACCTGATCCAATCGATTGAC | 348 a.u.
GTCTAAATTATTCCGCACGTTTTTCGGTGTGGTACA | 225 a.u.
TATCTCTGATGTTTGCACGTGCTTTAGCAACTCTTT | 2130 a.u.
CTAACGAAGGTTTGTCACAACACTTACAAGCCAAGT | 94.5 a.u.
CGGTTGAGACTTTAGCACGTGCTTTAGTTTATTTAT | 3950 a.u.
TGCAGTTCTTCAGCAAACGTGATGGGCAAAACAACG | 373 a.u.
CCGCGCAAAGCAGGCACCGTGCCGATATCTTTCTTT | 61 a.u.
CTTCTGTAAATTTGATTTGTGGGTGGACGCGCCCCG | 91.6 a.u.
CGGGGTTAAGTTTGCACAGTGGGTGGCTTGCAGCAG | 83 a.u.
ATCAACAATTTGTTCCACGTGCGATAAAATGTCGTT | 2140 a.u.
GCAAATCCTCCCACACATGTGACGCTTTGAATCAAG | 770 a.u.
CTACGCGGGCTATTGCAGGTGAGCAAGACATAGAAT | 78.6 a.u.

Block 4
Target: CCND1, cyclin fold, Cln2 fusion (human)
Method: yeast growth competition, sequencing
Matrix: yeast
Setting: weak parent motif
Baseline: not given
Direction: higher = stronger binding
Starting sequence: E2F1 docking peptide (human); PPVKRRLDLETDH
Variant | normalised enrichment score
PPVKRRLQLETDH [D8Q] | 0.112
PPVKRRLDLQTDH [E10Q] | 0.536
PPVKARADLETDH [R5A L7A] | -0.105
PPVKRRWDLETDH [L7W] | -0.0217
PPVKRRMDLETDH [L7M] | -0.118
PPIKRRLDLETDH [V3I] | -0.472
PPVKRRLDLETDN [H13N] | 0.699
PPVKRELDLETDH [R6E] | 0.856
PPVKNRLDLETDH [R5N] | 0.321
PPVKRRLDLETDV [H13V] | 0.512
KPVKRRLDLETDH [P1K] | 0.655
PPVKRRLLLETDH [D8L] | 0.627
PPVKRRLWLETDH [D8W] | 0.119
PPVKRRLDLETRH [D12R] | 0.177
PPVKRWLDLETDH [R6W] | 0.448
PPVKRNLDLETDH [R6N] | 0.0996
PPVKRRLMLETDH [D8M] | 0.102
APVKRRLDLETDH [P1A] | 0.607

Block 5
Target: Histone acetyltransferase KAT6A, winged helix 1, GST fusion (KAT6A, Homo sapiens, UniProt Q92794, residues 1-85)
Method: protein binding microarray
Form: double-stranded DNA, one strand shown
Matrix: in vitro
Concentration: not given
Setting: 8-mer, flanks averaged, mean of 2 arrays, mostly near background
Baseline: not given
Direction: higher = stronger binding
Target sequence (chain): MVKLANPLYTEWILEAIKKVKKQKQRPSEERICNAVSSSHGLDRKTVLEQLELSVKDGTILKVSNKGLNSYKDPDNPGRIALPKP
Sequence | E-score
AACACTGA | -0.0716
AGAGCCTA | -0.171
ATACTATG | -0.0443
CACACCTG | -0.202
ATGCGCCG | 0.43
CACACGGC | 0.345
CTGAAGTC | -0.074
CCGCTGAC | 0.289
CAGGACGG | 0.0724
CCGACAAG | 0.119
GTCTCAAA | -0.0514
AAGACGAT | -0.0739
ACGCGTCT | 0.304
GTGTCGAA | -0.225
GATCCACA | -0.162
CCCGCGCA | 0.413

Block 6
Target: Ras GTPase-activating protein-binding protein 1, full length (G3BP1, Homo sapiens, UniProt Q13283)
Chain of UniProt Q13283 (whole entry, looked up): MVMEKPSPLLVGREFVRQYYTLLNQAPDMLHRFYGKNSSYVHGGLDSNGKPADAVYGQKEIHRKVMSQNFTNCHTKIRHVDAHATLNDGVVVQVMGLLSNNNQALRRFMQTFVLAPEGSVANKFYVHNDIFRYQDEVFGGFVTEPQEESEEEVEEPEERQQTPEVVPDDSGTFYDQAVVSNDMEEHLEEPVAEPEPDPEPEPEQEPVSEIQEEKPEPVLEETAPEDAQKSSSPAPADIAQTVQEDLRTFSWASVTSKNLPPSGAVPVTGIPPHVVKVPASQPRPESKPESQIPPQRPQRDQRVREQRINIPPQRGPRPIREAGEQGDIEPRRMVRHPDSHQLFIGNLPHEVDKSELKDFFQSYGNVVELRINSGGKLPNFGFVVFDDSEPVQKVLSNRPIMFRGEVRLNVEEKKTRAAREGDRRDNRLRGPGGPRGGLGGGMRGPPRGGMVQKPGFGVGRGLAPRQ
Method: RNA Bind-n-Seq
Form: RNA
Matrix: in vitro
Concentration: 200 nM
Setting: whole 134-nt RNA, ends assumed
With: 150 mM LiCl
Baseline: input library
Direction: higher = stronger binding
Each molecule: 7-deaza-guanosine replaces G
Constant ends, left off below: GGGAGUUCUACAGUCCGACGAUC … UGGAAUUCUCGGGUGUCAAGG
Sequence | log2 enrichment
ACCAUGCAGGUGGGCAUCUUUGGGAAGUGGGGCAAGGGGGGGAUAGGGAGGGGGGUAAGACUUUGGGAACAGGUGGUCCCAGGUCGUUUC | 0.344
GUCCUGUGCUACACAUCGUAUGUACCGAAUCAAAGUGUGUGUGUGUGUGUGUGUGAAAAAAGUAUUAUGUUACGCCGUUCGGAUCUGCAC | -1.01
AAGUCCUGUGCUACACAUCGUAUGUACCGAAUCGGGAAAAGGGAAAAGGGAAAAGGAAAGUAUUAUGUUACGCCGUUCGGAUCUGCACUU | -0.197
CUGUGCUACACAUCGUAUGUACCGAAUCGGGGAAAAAGGGGUUUUUUUGGGGAAAAAGGGGAAAGUAUUAUGUUACGCCGUUCGGAUCUG | -0.694
UCCUGUGCUACACAUCGUAUGUACCGAAUCGGCCCCCCGGGCCCCCCGGGCCCCCCGGGAAAGUAUUAUGUUACGCCGUUCGGAUCUGCA | -1.39
CAAGUCCUGUGCUACACAUCGUAUGUACCGAAUCGGUUUGGGGUUUGGGUUUGGGGAAAGUAUUAUGUUACGCCGUUCGGAUCUGCACUU | -1.03
UGAAAUGUUUUUUUCUCUGUCUUCUUUCAGGUCUUUGUUGAGUAUGCAAAUGCUGGUGAUUCCAAAGCUGCGCAGAAAUUACUGACUGGA | -0.751
CAAGUCCUGUGCUACACAUCGUAUGUACCGAAUCGGGGAAAGGGGAGGGGAGGGGAAAGUAUUAUGUUACGCCGUUCGGAUCUGCACUUC | 0.401

Block 7
Target: Transcription factor Sp1 (SP1, Homo sapiens, UniProt P08047, residues 1-785, full length assumed)
Chain of UniProt P08047 (whole entry, looked up): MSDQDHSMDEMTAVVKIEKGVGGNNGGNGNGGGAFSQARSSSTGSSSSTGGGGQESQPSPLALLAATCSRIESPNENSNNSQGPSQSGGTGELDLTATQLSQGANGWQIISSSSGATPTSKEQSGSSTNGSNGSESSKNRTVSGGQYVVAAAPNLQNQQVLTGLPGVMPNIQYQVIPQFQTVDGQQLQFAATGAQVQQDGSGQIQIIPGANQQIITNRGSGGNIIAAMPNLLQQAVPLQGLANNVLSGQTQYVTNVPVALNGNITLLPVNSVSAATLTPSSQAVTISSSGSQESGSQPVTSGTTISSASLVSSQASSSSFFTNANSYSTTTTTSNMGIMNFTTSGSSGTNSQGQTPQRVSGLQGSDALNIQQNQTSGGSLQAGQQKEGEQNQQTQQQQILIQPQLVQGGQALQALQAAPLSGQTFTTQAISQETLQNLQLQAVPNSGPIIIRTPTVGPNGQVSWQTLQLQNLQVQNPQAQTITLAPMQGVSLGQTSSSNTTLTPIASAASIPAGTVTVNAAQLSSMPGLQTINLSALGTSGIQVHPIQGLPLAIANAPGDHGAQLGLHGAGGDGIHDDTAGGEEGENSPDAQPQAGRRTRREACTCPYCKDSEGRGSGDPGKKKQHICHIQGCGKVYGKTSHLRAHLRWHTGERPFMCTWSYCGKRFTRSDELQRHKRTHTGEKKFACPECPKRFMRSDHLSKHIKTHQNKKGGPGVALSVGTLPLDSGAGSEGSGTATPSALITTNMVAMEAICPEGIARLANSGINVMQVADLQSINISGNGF
Method: protein-binding microarray
Form: double-stranded DNA, one strand shown
Matrix: in vitro
Concentration: not given
Setting: k-mer, scored over probes, only values ≥0.25
Direction: higher = stronger binding
Sequence | E-score
ATTCATTC | 0.263
ATAGGGGC | 0.324
AATAGGGG | 0.346
AGCCCCTC | 0.32
AATGGTAA | 0.276
ACGCCCAC | 0.486
GCCCCTTA | 0.275
CCCCTCCA | 0.474
CACCCCAC | 0.426
GGGGTCTA | 0.251
AAAGTATA | 0.26
AACTAGGG | 0.265
ATATACTA | 0.26
CCCACCCG | 0.423
AGATACCC | 0.304
ACGGGGAG | 0.271

Excerpt of the above (block 1):
Sequence | E-score
GAAGATAC | 0.125
CTGGGACC | -0.283
ACATCGCG | -0.3
AGCAGTCG | -0.229
GAATTGCA | 0.0935
AACCACTA | 0.117
ATATTTAA | 0.448
CCCGCCCA | -0.155
CCAACCGA | -0.131
ACAAATGG | 0.141
ATTTGGGG | -0.0662
AGCACCGC | -0.334
TAAGCTTA | 0.101
ATGATAAA | 0.362
CGCACGAG | -0.263
ACCCTGGC | -0.315
TACGGATA | 0.217
AGCATTAA | 0.208
CTCGGTTC | -0.225
CAAATCGG | -0.0539
